Experimental data gathered from unrelated publications.
Numbers after ± are the reported error.

O=C([O-])CN1CCN(CC(=O)[O-])CCN(CC(=O)NCC2CCC(C(=O)N[C@@H](Cc3ccc4ccccc4c3)C(=O)NCCCC[C@H](NC(=O)N[C@@H](CCC(=O)O)C(=O)O)C(=O)O)CC2)CCN(CC(=O)[O-])CC1.[177Lu+3] (some centres unmarked)  mean measured GFR (99mTc-DTPA plasma clearance; human; after 3 cycles): 45 mL/min/1.73 m2
CC(=O)c1c(C)c2cnc(Nc3ccc(C4CCN(CCS(C)(=O)=O)CC4)cn3)nc2n(C2CCCC2)c1=O  mean residence time (human patients, plasma; oral, 75 mg twice daily, day 1 single dose, together with: fulvestrant): 5.29 h
C[C@]12C=CC(=O)C=C1C(CSC[C@H](N)C(=O)O)C[C@@H]1[C@@H]2CC[C@]2(C)C(=O)CC[C@@H]12 (some centres unmarked)  mean serum concentration (human, postmenopausal women, serum; dose not given): 0.027 µM
CCCC1CCC(C2CCC(c3ccc(F)c(F)c3)CC2)CC1 (centres unmarked)  mean serum concentration (human mother-newborn pairs, maternal serum): 0.33 ng/mL
COc1cc(C(=O)NC2CCN(C)CC2)c(F)cc1Nc1ncc(C(F)(F)F)c(Oc2cccc3c2C(=O)N(C)C3)n1  mean residence time at steady state (human patients, plasma; oral, 100 mg once daily repeated, geometric mean): 25.4 h
Cc1cn([C@H]2C[C@H](N=[N+]=[N-])[C@@H](COP(=O)(O)O)O2)c(=O)[nH]c1=O  mean residence time (refers to: phosphorylated zidovudine metabolites; human, peripheral blood mononuclear cells; 600 mg zidovudine, single dose): 18.7 ± 12.9 h
CC(C)(C)c1cc(-n2nc3ccccc3n2)c(O)c(C(C)(C)C)c1  mean daily dermal uptake (exposure assessment; human, age 16-21 years; foundation): 0.96 ng/kg body weight/day
CCC[C@H]1CC[C@H](c2ccc(-c3ccc(F)cc3)cc2)CC1  mean serum concentration (human mother-newborn pairs, cord serum): 0.46 ng/mL
